Experimental data collected from several papers.
Compare with care: the assays were run in different laboratories. “And” joins repeats or separate records; there may be more than shown.
MAPK8: Mitogen-activated protein kinase 8 (MAPK8, Homo sapiens, UniProt P45983)
Chain of UniProt P46089 (whole entry, looked up): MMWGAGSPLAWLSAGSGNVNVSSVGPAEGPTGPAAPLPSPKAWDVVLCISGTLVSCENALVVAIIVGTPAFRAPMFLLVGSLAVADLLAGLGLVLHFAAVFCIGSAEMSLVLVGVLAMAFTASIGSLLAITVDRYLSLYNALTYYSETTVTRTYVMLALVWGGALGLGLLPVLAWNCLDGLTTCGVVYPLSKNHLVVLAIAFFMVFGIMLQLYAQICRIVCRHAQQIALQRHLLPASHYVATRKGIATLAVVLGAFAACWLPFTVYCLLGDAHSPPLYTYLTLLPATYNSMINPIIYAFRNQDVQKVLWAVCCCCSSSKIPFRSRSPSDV
Chain of UniProt Q8H1R0 (whole entry, looked up): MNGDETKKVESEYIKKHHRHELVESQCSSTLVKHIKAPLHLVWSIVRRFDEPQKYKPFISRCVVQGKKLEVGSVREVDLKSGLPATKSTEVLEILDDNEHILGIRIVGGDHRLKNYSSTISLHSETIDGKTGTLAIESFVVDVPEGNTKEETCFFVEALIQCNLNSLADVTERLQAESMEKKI
Chain of UniProt P45983 (whole entry, looked up): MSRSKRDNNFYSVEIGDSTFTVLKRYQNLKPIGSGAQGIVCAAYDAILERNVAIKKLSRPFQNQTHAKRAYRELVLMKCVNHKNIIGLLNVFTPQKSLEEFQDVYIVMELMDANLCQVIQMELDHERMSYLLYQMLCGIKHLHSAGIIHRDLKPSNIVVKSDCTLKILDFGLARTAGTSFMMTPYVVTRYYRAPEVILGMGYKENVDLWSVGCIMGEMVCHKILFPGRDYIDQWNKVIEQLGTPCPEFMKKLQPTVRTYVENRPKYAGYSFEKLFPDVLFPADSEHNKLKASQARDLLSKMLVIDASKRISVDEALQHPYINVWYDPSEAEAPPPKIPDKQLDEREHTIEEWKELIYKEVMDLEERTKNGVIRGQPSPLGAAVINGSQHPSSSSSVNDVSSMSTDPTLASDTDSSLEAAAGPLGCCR
Chain of UniProt Q9HB29 (whole entry, looked up): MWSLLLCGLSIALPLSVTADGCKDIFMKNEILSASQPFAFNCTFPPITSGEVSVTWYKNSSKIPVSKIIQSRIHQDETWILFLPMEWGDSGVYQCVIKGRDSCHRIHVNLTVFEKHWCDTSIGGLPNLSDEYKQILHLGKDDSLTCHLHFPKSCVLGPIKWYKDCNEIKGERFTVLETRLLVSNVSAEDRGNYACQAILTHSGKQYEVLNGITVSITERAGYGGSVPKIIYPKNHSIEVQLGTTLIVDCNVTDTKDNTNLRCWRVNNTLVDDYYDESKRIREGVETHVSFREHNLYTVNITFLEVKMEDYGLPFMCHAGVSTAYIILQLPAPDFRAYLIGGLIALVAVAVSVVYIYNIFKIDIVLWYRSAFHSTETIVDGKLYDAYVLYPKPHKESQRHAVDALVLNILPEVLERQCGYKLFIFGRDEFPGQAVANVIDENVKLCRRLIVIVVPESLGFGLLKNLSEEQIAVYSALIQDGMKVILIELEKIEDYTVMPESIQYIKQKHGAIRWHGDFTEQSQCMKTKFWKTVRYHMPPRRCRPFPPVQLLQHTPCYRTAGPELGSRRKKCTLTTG
Chain of UniProt P05187 (whole entry, looked up): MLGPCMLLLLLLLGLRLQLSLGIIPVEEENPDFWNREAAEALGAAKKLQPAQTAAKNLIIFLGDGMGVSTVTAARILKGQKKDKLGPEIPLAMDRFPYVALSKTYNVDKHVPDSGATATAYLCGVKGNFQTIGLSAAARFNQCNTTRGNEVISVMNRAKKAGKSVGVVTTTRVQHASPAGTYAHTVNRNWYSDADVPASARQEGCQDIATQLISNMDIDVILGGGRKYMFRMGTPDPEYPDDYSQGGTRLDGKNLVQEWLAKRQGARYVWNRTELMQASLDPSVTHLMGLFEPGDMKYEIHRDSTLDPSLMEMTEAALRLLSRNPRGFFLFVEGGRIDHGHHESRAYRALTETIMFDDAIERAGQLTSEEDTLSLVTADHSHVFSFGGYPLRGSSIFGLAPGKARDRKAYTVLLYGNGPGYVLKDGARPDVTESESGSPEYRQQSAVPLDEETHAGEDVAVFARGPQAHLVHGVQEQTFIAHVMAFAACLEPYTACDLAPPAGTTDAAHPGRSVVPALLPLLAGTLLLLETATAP
Chain of UniProt Q15910 (whole entry, looked up): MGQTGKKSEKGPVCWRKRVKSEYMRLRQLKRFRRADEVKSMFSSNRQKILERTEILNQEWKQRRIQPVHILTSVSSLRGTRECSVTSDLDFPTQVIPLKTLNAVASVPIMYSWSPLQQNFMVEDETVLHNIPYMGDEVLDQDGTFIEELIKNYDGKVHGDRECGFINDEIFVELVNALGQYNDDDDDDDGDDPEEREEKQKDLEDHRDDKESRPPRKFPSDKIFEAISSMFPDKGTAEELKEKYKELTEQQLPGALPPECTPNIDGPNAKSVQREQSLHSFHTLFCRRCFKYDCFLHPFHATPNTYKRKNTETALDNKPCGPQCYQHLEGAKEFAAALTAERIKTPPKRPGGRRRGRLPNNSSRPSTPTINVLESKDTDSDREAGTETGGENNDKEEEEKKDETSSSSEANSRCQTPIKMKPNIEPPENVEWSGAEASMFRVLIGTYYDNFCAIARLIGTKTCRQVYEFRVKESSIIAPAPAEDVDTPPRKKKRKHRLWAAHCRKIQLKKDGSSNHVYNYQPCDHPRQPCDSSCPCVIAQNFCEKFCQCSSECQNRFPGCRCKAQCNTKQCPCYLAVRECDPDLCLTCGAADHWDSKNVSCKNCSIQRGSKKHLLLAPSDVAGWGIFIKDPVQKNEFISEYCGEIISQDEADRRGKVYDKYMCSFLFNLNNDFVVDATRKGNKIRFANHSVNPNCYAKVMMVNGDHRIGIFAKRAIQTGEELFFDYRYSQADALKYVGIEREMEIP
Chain of UniProt O43765 (whole entry, looked up): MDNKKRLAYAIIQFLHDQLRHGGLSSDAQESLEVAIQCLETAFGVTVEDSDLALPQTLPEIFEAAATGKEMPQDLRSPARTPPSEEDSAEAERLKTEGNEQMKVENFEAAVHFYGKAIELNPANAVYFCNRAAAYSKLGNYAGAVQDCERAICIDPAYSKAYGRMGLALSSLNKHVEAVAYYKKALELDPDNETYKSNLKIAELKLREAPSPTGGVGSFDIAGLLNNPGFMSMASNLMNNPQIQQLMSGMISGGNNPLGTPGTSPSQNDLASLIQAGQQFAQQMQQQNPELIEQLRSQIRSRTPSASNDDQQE
Chain of UniProt O75385 (whole entry, looked up): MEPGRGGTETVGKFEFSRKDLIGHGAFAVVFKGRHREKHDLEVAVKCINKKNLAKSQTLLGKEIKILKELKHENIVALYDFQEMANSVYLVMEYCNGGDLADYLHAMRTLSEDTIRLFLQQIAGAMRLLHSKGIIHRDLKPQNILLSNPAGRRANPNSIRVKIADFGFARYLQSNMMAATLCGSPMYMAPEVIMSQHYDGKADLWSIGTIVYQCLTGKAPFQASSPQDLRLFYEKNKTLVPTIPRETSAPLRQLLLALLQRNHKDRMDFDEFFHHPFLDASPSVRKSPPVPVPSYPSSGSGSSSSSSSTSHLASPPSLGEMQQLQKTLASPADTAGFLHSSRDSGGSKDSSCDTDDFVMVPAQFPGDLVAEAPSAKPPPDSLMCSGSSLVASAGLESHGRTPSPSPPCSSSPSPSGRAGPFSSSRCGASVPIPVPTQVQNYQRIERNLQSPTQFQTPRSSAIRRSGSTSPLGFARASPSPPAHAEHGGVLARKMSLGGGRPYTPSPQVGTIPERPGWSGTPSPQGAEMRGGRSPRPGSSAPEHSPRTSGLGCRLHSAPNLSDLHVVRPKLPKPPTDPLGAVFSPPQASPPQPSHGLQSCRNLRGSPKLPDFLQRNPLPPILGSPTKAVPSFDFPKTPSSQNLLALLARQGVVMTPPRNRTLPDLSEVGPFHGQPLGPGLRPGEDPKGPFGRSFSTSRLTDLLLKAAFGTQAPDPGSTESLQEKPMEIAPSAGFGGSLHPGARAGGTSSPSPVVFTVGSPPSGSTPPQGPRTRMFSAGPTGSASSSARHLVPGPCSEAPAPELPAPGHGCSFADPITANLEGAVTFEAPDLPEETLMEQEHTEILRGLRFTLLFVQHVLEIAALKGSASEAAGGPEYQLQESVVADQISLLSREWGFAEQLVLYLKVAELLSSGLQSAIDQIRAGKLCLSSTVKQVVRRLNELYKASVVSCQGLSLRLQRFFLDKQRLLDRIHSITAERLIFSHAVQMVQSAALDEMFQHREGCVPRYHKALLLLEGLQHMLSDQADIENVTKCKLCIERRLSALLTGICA
Chain of UniProt Q99986 (whole entry, looked up): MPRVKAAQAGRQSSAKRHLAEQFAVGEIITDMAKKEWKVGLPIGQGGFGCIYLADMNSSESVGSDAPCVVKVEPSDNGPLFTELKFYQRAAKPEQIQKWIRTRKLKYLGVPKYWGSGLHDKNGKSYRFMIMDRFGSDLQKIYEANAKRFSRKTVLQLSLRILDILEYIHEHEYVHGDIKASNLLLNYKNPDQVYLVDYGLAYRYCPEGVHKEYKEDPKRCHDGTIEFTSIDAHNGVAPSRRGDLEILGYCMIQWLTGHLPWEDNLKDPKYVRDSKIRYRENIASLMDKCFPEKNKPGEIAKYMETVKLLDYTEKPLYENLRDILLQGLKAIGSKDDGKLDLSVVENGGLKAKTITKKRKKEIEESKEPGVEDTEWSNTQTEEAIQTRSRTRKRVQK

For `COC1CN([C@H]2CC[C@H]([C@@]3(C)Oc4c(Cl)cc(C(=O)NCc5c(SC)cc(C)[nH]c5=O)c(C)c4O3)CC2)C1`, the residence time was 4380 min (Histone-lysine N-methyltransferase EZH2 (EZH2, Homo sapiens, UniProt Q15910); binding; basal PRC2 without H3K27me3 peptide).
For `CCC1(CC)C(=O)N(c2cccc(CN3CCN(C)CC3)c2)C1=O`, the selectivity ratio was over 4 (Dipeptidyl peptidase 8 (Homo sapiens, UniProt Q6V1X1); inhibitor; together with: GP-AMC substrate; baseline: Ki' DPP9 over Ki' DPP8).
For `COC(=O)[C@]1(Cc2ccccc2)C=C(C(=O)OC(C)(C)C)C(=O)CC1`, the fraction bound was -0.0532 (MAPK8; D-peptide binding, inhibitor, FP peptide displacement; 62.5 µM; lower is stronger displacement).
Under “activity vs control”, `O=C(c1cccnc1)N1CCN(CC(OCc2ccc3ccccc3c2)c2ccc(Cl)cc2Cl)CC1` (stereo not shown) is recorded as 117% (Serine/threonine-protein kinase ULK1 (ULK1, Homo sapiens, UniProt O75385); enzyme activity, inhibitor, ADP detection; 0.1 µM).
For `CCCCCCCCCCCCC/C=C/C=O`, “isoTOP-ABPP competition ratio” read 1.3 (Small glutamine-rich tetratricopeptide repeat-containing protein alpha (Homo sapiens, UniProt O43765); competitive isoTOP-ABPP, refers to: SGTA cysteine peptide; Ramos soluble proteome; 100 µM, together with: iodoacetamide probe; baseline: DMSO over compound-treated, higher = stronger cysteine blockade).
With `CC(C)Oc1cc(Cl)ccc1CNc1cc(-c2ccccc2)nc2ncnn12` the cAMP luminescence was 14300 a.u. and 26700 a.u. and 3340 a.u. and 14700 a.u. and 3770 a.u. and 5920 a.u. and 8210 a.u. and 6090 a.u. (G-protein coupled receptor 3 (GPR3, Homo sapiens, UniProt P46089); cAMP reporter; human cells; 1 µM; higher is more cAMP).
`CC(C)(C)OC(=O)C1=C[C@@](C)(C(=O)OCC#Cc2ccncc2)CCC1=O` gave a fraction bound of 0.862 (MAPK8; D-peptide binding, inhibitor, FP peptide displacement; 3.125 µM; lower is stronger displacement).
For `CN(C(=O)OCc1cc(C(=O)O)cc(F)c1OP(=O)(O)O)C(=O)c1ccc(N2C(=S)N(c3ccc(C#N)c(C(F)(F)F)c3)C(=O)C2(C)C)cc1F`, “drug formation rate” read 3.43 pmol/min (Alkaline phosphatase, placental type (Homo sapiens, UniProt P05187); substrate; 100 µM, pH 7.6, 37 °C).
For `O=[N+]([O-])c1cc(Br)cc([N+](=O)[O-])c1NS(=O)(=O)c1ccc(Br)cc1`, “HAB1 phosphatase activity” read 0.082 a.u. and 0.08 a.u. and 0.088 a.u. (PYL10, with HAB1 (Arabidopsis thaliana, UniProt Q8H1R0); antagonist; 10 µM, together with: ABA 5 µM; higher = more HAB1 activity).
With `CCCCCc1ccc(C(=O)N2c3ccc(F)cc3[C@@H](Nc3ccccc3)C[C@H]2C)cc1` the pIC50 Z-score was -1.67 (Ecdysone receptor (Aedes albopictus, UniProt Q9U3Y4); ligand binding, inhibitor; intact cells; together with: [3H]ponasterone A; direction not given).
Under “activity vs control”, `O=C(Cc1ccc(OCc2ccccc2)cc1)NC1(C(=O)O)CCN(C(=O)c2ccc(-c3cccc(Cl)c3)cc2)CC1` is recorded as 90% (Serine/threonine-protein kinase VRK1 (VRK1, Homo sapiens, UniProt Q99986); enzyme activity, inhibitor; 10 µM).
`CC(C)[C@@H]1NC(=O)[C@H](Cc2ccccc2)NC(=O)CSC[C@@H](C(N)=O)NC(=O)[C@H](CCC(=O)O)NC(=O)[C@H](CO)NC(=O)[C@H](Cc2c[nH]c3cccc(Cl)c23)NC(=O)[C@H](C2CCCCC2)NC(=O)[C@H](C(C)C)NC(=O)[C@H](Cc2ccc(O)cc2)NC(=O)[C@H](CC(=O)O)NC(=O)[C@H](Cc2c[nH]c3ccccc23)NC(=O)[C@H](Cc2ccc(N)nc2)NC(=O)[C@H](Cc2c[nH]c3ccc(Cl)cc23)NC(=O)[C@H](CCC(=O)O)NC1=O` has a remaining activity of 15.9% (Interleukin-1 receptor-like 2 (IL1RL2, Homo sapiens, UniProt Q9HB29); reporter gene (SEAP), inhibitor, HEK-Blue IL-36R reporter; HEK-Blue IL-36R cells; 1.23 µM, 6 h, together with: IL-36β 0.1 ng/mL).
`Fc1ccc(Nc2nc(NC3CCCCC3)c3cc(Br)ccc3n2)cc1F` has a maximal inhibition of 11.6% (Beta-2 adrenergic receptor (ADRB2, Homo sapiens, UniProt P07550, V126A); β-arrestin2 recruitment, antagonist, BRET; mutant V126A; baseline: isoprenaline maximal response).

For quick reference, copied from above:
For `CN(C(=O)OCc1cc(C(=O)O)cc(F)c1OP(=O)(O)O)C(=O)c1ccc(N2C(=S)N(c3ccc(C#N)c(C(F)(F)F)c3)C(=O)C2(C)C)cc1F`, “drug formation rate” read 3.43 pmol/min (Alkaline phosphatase, placental type (Homo sapiens, UniProt P05187); substrate; 100 µM, pH 7.6, 37 °C).
